Assay results collected from several papers.
Lines come from different studies, so protocols differ. Several values in a cell are separate wells, animals, samples, runs or records. Numbers after ± are the reported error. Values after ≈ are worked out from the molar mass of the structure shown.

CC[C@H](C)[C@H](NC(=O)[C@H](CCCCN)NC(=O)[C@@H](NC(=O)[C@H](Cc1ccc(O)cc1)NC(=O)[C@H](CCCCN)NC(=O)[C@H](CCCCN)NC(=O)CNC(=O)[C@H](CCCCN)NC(=O)[C@@H](NC(=O)[C@H](C)NC(=O)[C@H](CC(C)C)NC(=O)[C@H](Cc1c[nH]c2ccccc12)NC(=O)CNC(=O)[C@@H](NC(=O)[C@H](Cc1ccccc1)NC(=O)[C@H](CCCCN)NC(=O)[C@H](CC(C)C)NC(=O)[C@H](Cc1ccccc1)NC(=O)[C@H](C)NC(=O)CNC(=O)[C@@H](N)CCSC)C(C)C)[C@@H](C)O)C(C)C)C(=O)N[C@@H](C)C(=O)N[C@@H](Cc1c[nH]c2ccccc12)C(=O)N[C@@H](CC(=O)O)C(=O)N[C@@H](Cc1c[nH]cn1)C(=O)N[C@@H](CCCCN)C(=O)NCC(=O)N[C@H](C(=O)N[C@H](C(=O)N[C@@H](CCSC)C(=O)N[C@@H](CCCCN)C(=O)N[C@@H](Cc1c[nH]c2ccccc12)C(=O)N[C@@H](CC(C)C)C(=O)N[C@@H](CC(N)=O)C(=O)N[C@@H](C)C(=O)NCC(=O)N[C@@H](CCC(N)=O)C(=O)N[C@H](C(=O)N[C@@H](Cc1ccccc1)C(=O)N[C@H](C(=O)N[C@@H](Cc1c[nH]c2ccccc12)C(=O)N[C@H](C(=O)N[C@@H](Cc1ccc(O)cc1)C(=O)N[C@@H](CCC(=O)O)C(=O)N[C@@H](CCC(N)=O)C(=O)N[C@H](C(=O)N[C@@H](CCCCN)C(=O)N[C@@H](CCCCN)C(=O)N[C@@H](CC(C)C)C(=O)N[C@@H](Cc1c[nH]c2ccccc12)C(=O)N[C@H](C(=O)O)[C@@H](C)O)[C@@H](C)CC)C(C)C)[C@@H](C)O)[C@@H](C)O)[C@@H](C)CC)[C@@H](C)O  MIC after heating (Pediococcus damnosus; CECT 4797; 30 min, 100 °C): 24 µg/mL (≈ 3.97 µM)
O=NN1CCN(C2CCCC2)CC1  revertant colonies per plate (Salmonella typhimurium; mutagenicity, Ames plate incorporation; TA1537; 50 µg/plate, 3 d, without S9, methanol): 15 ± 5
COc1cc2c(Oc3ccc4[nH]c(C)cc4c3F)ccnc2cc1OCC1(N)CC1  TBIL elevation incidence (paediatric refractory sarcoma patients; 8 mg): 0%
CNC(=O)c1c(N(C)N=O)ncn1C  revertant colonies per plate (Salmonella typhimurium; mutagenicity, Ames plate incorporation; TA1535; 1500 µg/plate, without S9, methanol): 16 ± 3
O=[N+]([O-])c1ccc(N2CCC(NCCC(O)c3ccc(F)c4ccccc34)CC2)c(C(F)(F)F)c1 (stereo not shown)  induction factor (Salmonella typhimurium; genotoxicity, SOS/umu test; TA1535/pSK1002; 0.001 mg/mL, 4 h, with S9, lower range): 1.1
[Cl-].[Cl-].[Pt+2].[Ru+2].c1ccc(-c2nc3ccccc3nc2-c2ccccn2)nc1.c1cnc2c(c1)ccc1cccnc12.c1cnc2c(c1)ccc1cccnc12  survival rate (Danio rerio; embryos; 45 µM, 12 h): 86.7 ± 3.3%
C=C(NC(=O)c1nccc(OC)c1O)C(=O)O[C@@H](C)[C@H](OC(=O)C(C)C)[C@@H](Cc1ccccc1)C(=O)O  LC50 (Oncorhynchus mykiss; mortality, static-renewal water exposure; 96 h): 7.1 µg/mL (≈ 13.8 µM)
Cc1cc(C(=O)NC(C)(C)COc2cccc3c2C(N)=NS(=O)(=O)N3)cc(C)n1  revertant ratio (Salmonella typhimurium; Ames test, initial; TA100; 5000 µg/plate, added: rat liver S9; reference: solvent control): 1.3
CC(=O)N1CCC(C(=O)N2CCN3C(=O)c4cc(-c5ccccc5)ccc4NC(=O)C3C2)CC1 (stereo not shown)  revertant fold increase (Escherichia coli; WP2 uvrA; 1.58 µg/plate, with rat liver S9; reference: vehicle): 0.8
CN(CC(C)(C)C)N=O  revertant colonies per plate (Salmonella typhimurium; mutagenicity, Ames plate incorporation; TA100; 50 µg/plate, without S9, methanol): 168 ± 8
COc1ccnc(C(=O)N[C@H]2COC(=O)[C@H](Cc3ccccc3)[C@@H](OC(=O)C(C)C)[C@H](C)OC2=O)c1OCOC(=O)C(C)C  LC50 (Oncorhynchus mykiss; flow-through; 96 h): 0.0022 µg/mL (≈ 0.00358 µM)
Fc1ccc(C2=CCNCC2)cc1  survival (Salmonella typhimurium; SOS/umu test; TA1535/pSK1002; 0.125 mg/mL, 4 h, without S9, full range): 96.5%
c1cc2ccc3cccc4ccc(c1)c2c34  hepatic intrinsic clearance kmet,int (Oncorhynchus mykiss; IVIVE from liver S9): 17300 h⁻¹ and 23000 h⁻¹ and 20300 h⁻¹
[Cl-].[Cl-].[Pt+2].[Ru+2].c1ccc(-c2nc3cc4ccccc4cc3nc2-c2ccccn2)nc1.c1cnc2c(c1)ccc1cccnc12.c1cnc2c(c1)ccc1cccnc12  hatching rate (Danio rerio; embryos; 60 µM, 48 h): 13.3 ± 4.6%
COc1cccc(-c2n[nH]c(SCc3ccccn3)n2)c1OC  revertant colonies per plate (Salmonella typhimurium; Ames test, plate incorporation; TA98; 1.0 mg/plate, without S9): 21
[Cl-].[Cl-].[Pt+2].[Ru+2].c1ccc(-c2nccnc2-c2ccccn2)nc1.c1cnc2c(c1)ccc1cccnc12.c1cnc2c(c1)ccc1cccnc12  hatching rate (Danio rerio; embryos; 75 µM, 72 h): 6.67 ± 5.7%
C[C@@H]1OC(=O)[C@H](Cc2ccccc2)[C@H]1O  LC50 (Oncorhynchus mykiss; mortality, static-renewal water exposure; 96 h): > 9.8 µg/mL
CC(C)N(N=O)C(C)C  revertant colonies per plate (Salmonella typhimurium; mutagenicity, Ames plate incorporation; TA1535; 150 µg/plate, without S9, methanol): 26 ± 2
O=[N+]([O-])c1ccc(N2CCN(CCC(O)c3ccc(F)cc3)CC2)c(C(F)(F)F)c1 (stereo not shown)  induction factor (Salmonella typhimurium; SOS response, SOS/umu test; TA1535/pSK1002, TGA medium; 0.000244 mg/mL, 4 h, without S9; reference: untreated): 0.8

Excerpt of the above:
CC(=O)N1CCC(C(=O)N2CCN3C(=O)c4cc(-c5ccccc5)ccc4NC(=O)C3C2)CC1 (stereo not shown)  revertant fold increase (Escherichia coli; WP2 uvrA; 1.58 µg/plate, with rat liver S9; reference: vehicle): 0.8
CN(CC(C)(C)C)N=O  revertant colonies per plate (Salmonella typhimurium; mutagenicity, Ames plate incorporation; TA100; 50 µg/plate, without S9, methanol): 168 ± 8
